{"data": "Experimental data gathered from unrelated publications", "PRKCB isoform beta-II": "Protein kinase C beta type, isoform beta-II (PRKCB, Homo sapiens, UniProt P05771)", "PRKCB isoform beta-I": "Protein kinase C beta type, isoform beta-I (PRKCB, Homo sapiens, UniProt P05771)", "note": "Lines come from different studies, so protocols differ.", "chain of UniProt P05771 (whole entry, looked up)": "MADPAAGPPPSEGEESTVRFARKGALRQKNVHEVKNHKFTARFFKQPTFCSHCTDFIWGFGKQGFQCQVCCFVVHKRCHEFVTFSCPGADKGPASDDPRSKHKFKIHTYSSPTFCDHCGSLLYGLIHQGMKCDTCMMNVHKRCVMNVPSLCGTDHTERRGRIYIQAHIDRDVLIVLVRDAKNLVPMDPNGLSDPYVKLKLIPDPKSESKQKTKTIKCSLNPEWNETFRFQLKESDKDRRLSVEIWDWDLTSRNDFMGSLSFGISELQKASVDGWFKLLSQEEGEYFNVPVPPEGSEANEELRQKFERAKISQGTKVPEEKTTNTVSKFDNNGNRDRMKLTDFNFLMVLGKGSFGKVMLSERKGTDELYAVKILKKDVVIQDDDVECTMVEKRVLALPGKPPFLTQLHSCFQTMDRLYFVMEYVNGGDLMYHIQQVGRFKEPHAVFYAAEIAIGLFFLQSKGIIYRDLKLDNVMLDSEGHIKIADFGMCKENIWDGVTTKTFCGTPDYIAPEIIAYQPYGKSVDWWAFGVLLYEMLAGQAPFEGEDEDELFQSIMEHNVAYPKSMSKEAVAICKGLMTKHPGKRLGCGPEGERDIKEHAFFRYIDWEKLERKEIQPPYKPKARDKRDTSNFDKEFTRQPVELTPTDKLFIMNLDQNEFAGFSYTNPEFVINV"}
{"SMILES": "COc1cc(F)ccc1-c1ncnc(Nc2cccc(C[S@](C)(=N)=O)c2)n1", "target": "PRKCB isoform beta-II", "assay": "kinase activity", "setting": "10 µM, together with: 10 µM ATP", "remaining activity [%]": 88}
{"SMILES": "CC(C)c1ccc(NC(=O)c2cccs2)c(-c2nc3ccccc3[nH]c2=O)c1", "target": "PRKCB isoform beta-I", "assay": "kinase activity", "setting": "1 µM", "remaining activity [%]": 109}
{"SMILES": "CCN(CC)c1ccc(C2=NNC(=O)CC2C)cc1[N+](=O)[O-] (stereo not drawn)", "target": "PRKCB isoform beta-II", "assay": "kinase activity, inhibitor", "setting": "10 µM", "remaining activity [%]": 101}
{"SMILES": "Cc1cc(Nc2cc(N3CCN(C)CC3)nc(Sc3ccc(NC(=O)C4CC4)cc3)n2)[nH]n1", "target": "PRKCB isoform beta-I", "assay": "kinase activity, KinaseProfiler", "setting": "0.03 µM, species human", "scale": "relative to: control", "remaining activity [%]": 109}
{"SMILES": "COc1cc(-c2cncc3c2CN(C)Cc2cc(N4CCNCC4)ccc2-3)cc(OC)c1OC", "target": "PRKCB isoform beta-I", "assay": "enzyme activity", "setting": "1 µM, together with: 10 µM ATP", "scale": "relative to: DMSO", "remaining activity [%]": 102}
{"SMILES": "CNc1ncc2c(/C=C/C(=O)N3CCC(OC)CC3)nn(Cc3cccc(C(F)(F)F)c3)c2n1", "target": "PRKCB isoform beta-II", "assay": "inhibitor", "setting": "1 µM", "scale": "relative to: control", "remaining activity [%]": 94}
{"SMILES": "CCCOc1ccc(OC)c(F)c1C(=O)c1ccc(C(=O)N[C@@H]2CNC[C@H]2NC(=O)c2ccc3[nH]ncc3c2)cc1", "target": "PRKCB isoform beta-I", "assay": "kinase activity", "setting": "10 µM", "remaining activity [%]": 48}
{"SMILES": "Cc1cnc(NC2CCOCC2)nc1-n1cnc(C(=O)NC(CN)c2cc(F)cc(Cl)c2)c1 (stereo not drawn)", "target": "PRKCB isoform beta-II", "assay": "radiometric", "setting": "1 µM", "remaining activity [%]": 105}
{"SMILES": "Cc1ccc(NC(=O)c2ccc(C)c(C(F)(F)F)c2)cc1C#Cc1nn(C2CCC(O)CC2)c2ncnc(N)c12 (stereo not drawn)", "target": "PRKCB isoform beta-I", "assay": "enzyme activity", "setting": "10 µM, together with: ATP 10 µM", "remaining activity [%]": 100}
{"SMILES": "c1cnc2ccc(Nc3nc(NC4CC4)c4nc[nH]c4n3)cc2c1", "target": "PRKCB isoform beta-II", "assay": "kinase activity, inhibitor, SelectScreen kinase profiling", "setting": "1 µM", "scale": "relative to: control", "remaining activity [%]": 95}
{"SMILES": "CC(C)(C)c1nc2c(s1)c1nc(N)ncc1c1ccc(NS(=O)(=O)c3c(F)cccc3F)c(F)c12", "target": "PRKCB isoform beta-I", "assay": "kinase activity, radiometric 33PanQinase", "setting": "1 µM", "scale": "relative to: DMSO", "remaining activity [%]": 94}
{"SMILES": "Cc1ccc(C(=O)NCc2ccsc2)cc1C#Cc1cn(C(C)C)c2ncnc(N)c12", "target": "PRKCB isoform beta-II", "assay": "kinase activity", "setting": "1 µM, together with: ATP at Km", "remaining activity [%]": 102}
{"SMILES": "Cc1cc(NC(=O)c2cccc3cc(-c4cccc5[nH]nc(N)c45)ccc23)ccc1F", "target": "PRKCB isoform beta-I", "assay": "enzyme activity, kinase profiling panel", "setting": "0.1 µM", "remaining activity [%]": 106}
{"SMILES": "CC(C)(O)[C@H]1CC[C@H](Nc2ccc3ncc(-c4cccc(C(F)(F)F)c4)n3n2)CC1", "target": "PRKCB isoform beta-I", "assay": "enzyme activity, inhibitor", "setting": "1 µM, together with: 10 µM ATP", "scale": "relative to: DMSO", "remaining activity [%]": 92}
{"SMILES": "COc1cc(Cl)c(C(=O)N[C@@H](CN[C@H]2CC[C@@H](N)CC2)Cc2ccc(C#N)cc2)cc1-c1ccc(CN[C@H](C)c2ccc(C)cc2)o1", "target": "PRKCB isoform beta-I", "assay": "enzyme activity, KinaseProfiler panel", "setting": "1 µM", "remaining activity [%]": 94}
{"note": "For quick reference, copied from above:"}
{"SMILES": "CC(C)c1ccc(NC(=O)c2cccs2)c(-c2nc3ccccc3[nH]c2=O)c1", "target": "PRKCB isoform beta-I", "assay": "kinase activity", "setting": "1 µM", "remaining activity [%]": 109}
{"SMILES": "CCN(CC)c1ccc(C2=NNC(=O)CC2C)cc1[N+](=O)[O-] (stereo not drawn)", "target": "PRKCB isoform beta-II", "assay": "kinase activity, inhibitor", "setting": "10 µM", "remaining activity [%]": 101}
